Published values of several laboratories.
Parts stem from different laboratories: compare values within a part only.

Sample 1 — technique: protein-binding microarray; form: double-stranded DNA, one strand shown; sample: in vitro; tested at: not given; reading: higher = stronger binding
Target: Protein C-ets-1 (ETS1, Homo sapiens, UniProt P14921, residues 1-441, K379A, full length assumed)
Notes: k-mer, scored over probes, only values ≥0.25
Target sequence (chain): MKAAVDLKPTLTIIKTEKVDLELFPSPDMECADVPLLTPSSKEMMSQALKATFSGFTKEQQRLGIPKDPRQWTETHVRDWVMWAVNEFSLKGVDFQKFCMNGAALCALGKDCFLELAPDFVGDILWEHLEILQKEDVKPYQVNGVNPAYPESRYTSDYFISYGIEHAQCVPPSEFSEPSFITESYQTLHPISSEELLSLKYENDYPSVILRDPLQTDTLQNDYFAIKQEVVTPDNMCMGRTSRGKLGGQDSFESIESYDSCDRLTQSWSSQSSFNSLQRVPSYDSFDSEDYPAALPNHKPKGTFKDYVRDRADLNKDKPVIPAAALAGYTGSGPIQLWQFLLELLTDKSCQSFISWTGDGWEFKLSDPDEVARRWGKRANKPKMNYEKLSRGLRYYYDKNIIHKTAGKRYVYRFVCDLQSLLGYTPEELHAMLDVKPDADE
Strand | E-score
TCCCGGGA | 0.296
AACCGGAG | 0.345
CGGAAACA | 0.327
ATATTTAC | 0.274
CCCGGCAA | 0.303
GTTTCCTA | 0.266
CACATAAA | 0.256
TAATCCAA | 0.251

Sample 2 — technique: RNA Bind-n-Seq; form: RNA; sample: in vitro; tested at: 1 µM; notes: whole 134-nt RNA, ends assumed; added: 150 mM KCl; relative to: input library; reading: higher = stronger binding
Target: Ras GTPase-activating protein-binding protein 1, C-terminal RGG region (G3BP1, Homo sapiens, UniProt Q13283)
Sequence of UniProt Q13283 (whole entry, looked up): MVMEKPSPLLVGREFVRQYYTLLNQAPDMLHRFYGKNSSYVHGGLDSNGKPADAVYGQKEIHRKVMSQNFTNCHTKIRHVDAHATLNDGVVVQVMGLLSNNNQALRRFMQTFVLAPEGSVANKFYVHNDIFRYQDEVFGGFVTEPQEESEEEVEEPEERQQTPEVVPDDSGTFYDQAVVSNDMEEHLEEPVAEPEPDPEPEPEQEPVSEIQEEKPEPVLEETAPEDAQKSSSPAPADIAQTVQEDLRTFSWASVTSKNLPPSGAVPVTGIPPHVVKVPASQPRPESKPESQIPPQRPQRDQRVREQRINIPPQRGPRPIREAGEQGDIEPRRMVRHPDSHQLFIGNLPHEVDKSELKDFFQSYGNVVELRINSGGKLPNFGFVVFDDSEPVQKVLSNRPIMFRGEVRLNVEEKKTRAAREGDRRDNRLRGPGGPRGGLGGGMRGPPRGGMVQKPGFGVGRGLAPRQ
Strand | log2 enrichment
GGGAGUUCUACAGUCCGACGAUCCCUGUGCUACACAUCGUAUGUACCGAAUCGGGGUUUUUGGGGUUUUUGGGGUUUUUGGGGAAAGUAUUAUGUUACGCCGUUCGGAUCUGCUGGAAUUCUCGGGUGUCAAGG | 0.637
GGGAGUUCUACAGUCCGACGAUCUCCUCAAGUCCUGUGCUACACAUCGUAUGUACCGAAUCGGUGGGUGGGGUGGAAAGUAUUAUGUUACGCCGUUCGGAUCUGCACUUCCAGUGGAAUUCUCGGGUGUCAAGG | 0.127
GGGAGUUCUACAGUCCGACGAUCCAAGUCCUGUGCUACACAUCGUAUGUACCGAAUCGGUUUUUGGAGGAAAAAAAGGAAAGUAUUAUGUUACGCCGUUCGGAUCUGCACUUCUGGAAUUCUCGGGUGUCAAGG | -1.53
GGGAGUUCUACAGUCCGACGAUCUCAAGUCCUGUGCUACACAUCGUAUGUACCGAAUCGGUUUUUGGAGGAAAAAGGAAAGUAUUAUGUUACGCCGUUCGGAUCUGCACUUCCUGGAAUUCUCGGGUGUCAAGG | -1.29
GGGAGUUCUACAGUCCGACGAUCACCAUGCAGGCGGGCAUCUUUGGGAAGUGGGGCAAGGGGGGGAUAGGGAGGGGGGUAACACUUUGGGAACAGGUGGUCCCAGGUCGUUUCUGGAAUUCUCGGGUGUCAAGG | -1.32
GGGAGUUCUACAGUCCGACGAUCUGGCCCUGGUGGCAUGCGGGGAGGAAGAGGUGGCCUCAUGGAUCGUGGUGGUCCCGGUGGAAUGUUCAGAGGUGGCCGGGGUGGAGACAGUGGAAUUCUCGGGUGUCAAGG | 3.52
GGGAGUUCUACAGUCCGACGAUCACCAUGCACGUGGGCAUCUUUGGGAAGUGGGGCAAGGGGGGGAUAGGGAGGGGGGUAACACUUUGGGAACAGGUGGUCCCAGGUCGUUUCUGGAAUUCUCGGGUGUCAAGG | -1.16

Sample 3 — technique: universal PBM; form: double-stranded DNA, one strand shown; sample: in vitro; tested at: not given; reading: higher = stronger binding
Target: Sal-like protein 4, full length isoform B (SALL4, Homo sapiens, UniProt Q9UJQ4-2, residues 1-616)
Notes: 8-mer, flanks averaged, mean of replicates
Target sequence (chain): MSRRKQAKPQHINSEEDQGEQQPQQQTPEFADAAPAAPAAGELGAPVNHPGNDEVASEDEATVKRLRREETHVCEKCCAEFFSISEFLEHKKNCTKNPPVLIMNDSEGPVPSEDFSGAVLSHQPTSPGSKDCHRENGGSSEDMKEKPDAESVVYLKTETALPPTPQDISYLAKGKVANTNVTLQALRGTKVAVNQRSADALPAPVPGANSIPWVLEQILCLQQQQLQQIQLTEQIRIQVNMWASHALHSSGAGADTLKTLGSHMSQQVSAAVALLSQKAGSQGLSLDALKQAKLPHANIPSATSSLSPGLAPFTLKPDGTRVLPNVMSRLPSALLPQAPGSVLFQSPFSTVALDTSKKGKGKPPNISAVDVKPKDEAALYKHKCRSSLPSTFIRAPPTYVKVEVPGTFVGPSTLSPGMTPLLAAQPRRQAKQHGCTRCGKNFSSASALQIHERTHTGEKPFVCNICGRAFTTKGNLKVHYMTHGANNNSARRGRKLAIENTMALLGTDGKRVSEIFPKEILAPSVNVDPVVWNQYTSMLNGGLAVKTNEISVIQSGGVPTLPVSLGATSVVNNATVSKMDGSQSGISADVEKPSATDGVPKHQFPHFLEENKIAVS
Strand | E-score
AACTCACA | 0.137
ACGTGGGC | -0.135
TACCCTGA | -0.0963
GGCTGACA | -0.143
AAAAAGTT | 0.228
AAATCACT | 0.196
GCTGTCAA | -0.19

Single results of other studies
Molecule | target | assay | test system | conditions | how to read | quantity | result
PhoQ, residues 284 288 289 292 302 303 SNGLAW | PhoP, residues 12 14 15 18 19 LHHVQ (Escherichia coli, UniProt P23836) | Sort-seq, measured: YFP reporter | E. coli | PhoQ-PhoP variant library, added: 10 µM Mg2+ | relative to: high Mg2+ state, higher = stronger signaling | fold induction | 7.84
